Experimental data gathered from unrelated publications.
Each line is one published result; not all experiments were run side by side. “And” joins repeats or separate records; there may be more than shown. ± gives the spread as reported.
U2AF2: U2AF2 148-342 (Homo sapiens, UniProt P26368)
Sequence of UniProt P26368 (whole entry, looked up): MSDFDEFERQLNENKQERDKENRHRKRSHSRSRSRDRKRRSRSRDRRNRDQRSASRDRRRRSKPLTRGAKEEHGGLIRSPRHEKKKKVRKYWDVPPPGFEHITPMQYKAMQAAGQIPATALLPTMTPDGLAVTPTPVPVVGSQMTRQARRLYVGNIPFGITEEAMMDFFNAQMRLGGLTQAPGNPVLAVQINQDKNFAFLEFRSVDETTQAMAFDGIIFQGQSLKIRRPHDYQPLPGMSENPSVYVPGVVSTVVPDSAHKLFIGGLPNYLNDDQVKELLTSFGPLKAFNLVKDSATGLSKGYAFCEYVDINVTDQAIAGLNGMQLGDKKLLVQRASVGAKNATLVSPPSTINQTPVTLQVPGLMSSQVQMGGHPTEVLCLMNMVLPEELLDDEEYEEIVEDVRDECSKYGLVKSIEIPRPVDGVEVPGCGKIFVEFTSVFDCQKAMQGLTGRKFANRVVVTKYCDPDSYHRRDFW
B1: human ADP/ATP translocase 4; sequence looked up; chain MHREPAKKKAEKRLFDASSFGKDLLAGGVAAAVSKTAVAPIERVKLLLQVQASSKQISPEARYKGMVDCLVRIPREQGFFSFWRGNLANVIRYFPTQALNFAFKDKYKQLFMSGVNKEKQFWRWFLANLASGGAAGATSLCVVYPLDFARTRLGVDIGKGPEERQFKGLGDCIMKIAKSDGIAGLYQGFGVSVQGIIVYRASYFGAYDTVKGLLPKPKKTPFLVSFFIAQVVTTCSGILSYPFDTVRRRMMMQSGEAKRQYKGTLDCFVKIYQHEGISSFFRGAFSNVLRGTGGALVLVLYDKIKEFFHIDIGGR
B2: PLRG1 (human); sequence looked up; chain MVEEVQKHSVHTLVFRSLKRTHDMFVADNGKPVPLDEESHKRKMAIKLRNEYGPVLHMPTSKENLKEKGPQNATDSYVHKQYPANQGQEVEYFVAGTHPYPPGPGVALTADTKIQRMPSESAAQSLAVALPLQTKADANRTAPSGSEYRHPGASDRPQPTAMNSIVMETGNTKNSALMAKKAPTMPKPQWHPPWKLYRVISGHLGWVRCIAVEPGNQWFVTGSADRTIKIWDLASGKLKLSLTGHISTVRGVIVSTRSPYLFSCGEDKQVKCWDLEYNKVIRHYHGHLSAVYGLDLHPTIDVLVTCSRDSTARIWDVRTKASVHTLSGHTNAVATVRCQAAEPQIITGSHDTTIRLWDLVAGKTRVTLTNHKKSVRAVVLHPRHYTFASGSPDNIKQWKFPDGSFIQNLSGHNAIINTLTVNSDGVLVSGADNGTMHLWDWRTGYNFQRVHAAVQPGSLDSESGIFACAFDQSESRLLTAEADKTIKVYREDDTATEETHPVSWKPEIIKRKRF
B3: spindlin-3 (human); sequence looked up; chain MKTPFGKAAAGQRSRTGAGHGSVSVTMIKRKAAHKKHRSRPTSQPRGNIVGCRIQHGWKDGDEPLTQWKGTVLDQVPVNPSLYLIKYDGFDCVYGLELHRDERVSSLEVLPNRVASSRISDTHLAEIMVGKAVEHIFETEEGSKNEWRGMVLAQAPVMNTWFYITYEKDPVLYMYQLLDDYKDGDLRILQDSNDSPLAEREPGEVIDSLVGKQVEYAKDDGSKRTGMVIHQVEAKPSVYFIKFDDDFHIYVYDLVKTS
B4: human FOXK1; sequence looked up; chain AEVGEDSGARALLALRSAPCSPVLCAAAAAAAFPAAAPPPAPAQPQPPPGPPPPPPPPLPPGAIAGAGSSGGSSGVSGDSAVAGAAPALVAAAAASVRQSPGPALARLEGREFEFLMRQPSVTIGRNSSQGSVDLSMGLSSFISRRHLQLSFQEPHFYLRCLGKNGVFVDGAFQRRGAPALQLPKQCTFRFPSTAIKIQFTSLYHKEEAPASPLRPLYPQISPLKIHIPEPDLRSMVSPVPSPTGTISVPNSCPASPRGAGSSSYRFVQNVTSDLQLAAEFAAKAASEQQADTSGGDSPKDESKPPFSYAQLIVQAISSAQDRQLTLSGIYAHITKHYPYYRTADKGWQNSIRHNLSLNRYFIKVPRSQEEPGKGSFWRIDPASEAKLVEQAFRKRRQRGVSCFRTPFGPLSSRSAPASPTHPGLMSPRSGGLQTPECLSREGSPIPHDPEFGSKLASVPEYRYSQSAPGSPVSAQPVIMAVPPRPSSLVAKPVAYMPASIVTSQQPAGHAIHVVQQAPTVTMVRVVTTSANSANGYILTSQGAAGGSHDAAGAAVLDLGSEARGLEEKPTIAFATIPAAGGVIQTVASQMAPGVPGHTVTILQPATPVTLGQHHLPVRAVTQNGKHAVPTNSLAGNAYALTSPLQLLATQASSSAPVVVTRVCEVGPKEPAAAVAATATTTPATATTASASASSTGEPEVKRSRVEEPSGAVTTPAGVIAAAGPQGPGTGE
B5: human SFPQ; sequence looked up; chain MSRDRFRSRGGGGGGFHRRGGGGGRGGLHDFRSPPPGMGLNQNRGPMGPGPGQSGPKPPIPPPPPHQQQQQPPPQQPPPQQPPPHQPPPHPQPHQQQQPPPPPQDSSKPVVAQGPGPAPGVGSAPPASSSAPPATPPTSGAPPGSGPGPTPTPPPAVTSAPPGAPPPTPPSSGVPTTPPQAGGPPPPPAAVPGPGPGPKQGPGPGGPKGGKMPGGPKPGGGPGLSTPGGHPKPPHRGGGEPRGGRQHHPPYHQQHHQGPPPGGPGGRSEEKISDSEGFKANLSLLRRPGEKTYTQRCRLFVGNLPADITEDEFKRLFAKYGEPGEVFINKGKGFGFIKLESRALAEIAKAELDDTPMRGRQLRVRFATHAAALSVRNLSPYVSNELLEEAFSQFGPIERAVVIVDDRGRSTGKGIVEFASKPAARKAFERCSEGVFLLTTTPRPVIVEPLEQLDDEDGLPEKLAQKNPMYQKERETPPRFAQHGTFEYEYSQRWKSLDEMEKQQREQVEKNMKDAKDKLESEMEDAYHEHQANLLRQDLMRRQEELRRMEELHNQEMQKRKEMQLRQEEERRRREEEMMIRQREMEEQMRRQREESYSRMGYMDPRERDMRMGGGGAMNMGDPYGSGGQKFPPLGGGGGIGYEANPGVPPATMSGSMMGSDMRTERFGQGGAGPVGGQGPRGMGPGTPAGYGRGREEYEGPNKKPRF
Sequence of UniProt Q00535 (whole entry, looked up): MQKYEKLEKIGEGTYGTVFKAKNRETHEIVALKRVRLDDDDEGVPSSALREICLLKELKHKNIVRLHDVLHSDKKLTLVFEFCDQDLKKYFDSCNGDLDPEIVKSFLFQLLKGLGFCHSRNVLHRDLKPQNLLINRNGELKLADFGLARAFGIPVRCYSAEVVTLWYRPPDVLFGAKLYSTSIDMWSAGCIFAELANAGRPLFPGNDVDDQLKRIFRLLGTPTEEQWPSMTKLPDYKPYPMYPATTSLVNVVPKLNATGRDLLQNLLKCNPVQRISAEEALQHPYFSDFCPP
Sequence of UniProt P13393 (whole entry, looked up): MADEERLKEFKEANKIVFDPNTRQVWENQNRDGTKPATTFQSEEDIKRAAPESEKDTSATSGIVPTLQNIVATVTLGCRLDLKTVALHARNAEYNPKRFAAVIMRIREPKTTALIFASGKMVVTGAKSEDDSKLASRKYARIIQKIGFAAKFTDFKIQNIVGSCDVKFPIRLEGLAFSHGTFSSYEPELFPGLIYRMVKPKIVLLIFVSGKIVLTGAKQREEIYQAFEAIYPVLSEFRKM

Substance = CAUUCAUUC (ssRNA); tested on = U2AF2; test = sequencing of bound RNA; system = RNA; setting = motif only; quantity = Kd; value = 740 nM
Substance = human E-Syt1; tested on = PP6C (human); test = co-immunoprecipitation, IP-MS; system = CYB5R4 knockout cells; setting = concentration not given; how to read = baseline: CYB5R4 knockout over parental; quantity = log2 fold change; value = -0.61
Substance = colistin; tested on = Pseudomonas aeruginosa; system = clinical isolate RKI 82/10; quantity = MIC; value = ≤ 1 µg/mL
Substance = difelikefalin; system = Japanese haemodialysis patients with pruritus; setting = intravenous, 1.0 µg/kg, 8 weeks; quantity = PGIC no change; value = 8.3%
Substance = GSGAGICTIV; tested on = construct, MBP fusion, human SCRIB, PDZ 3-4; test = automated holdup; system = peptide, crude extract; setting = concentration not given, corrected by standard peak, unit not given; how to read = baseline: biotin control resin, higher = stronger binding; quantity = binding intensity; value = 0.111
Substance = cotadutide; test = metabolomics, refers to: hepatic glycine; system = ob/ob mice on AMLN diet, NASH model, liver; setting = dose not given; quantity = metabolite level; value = 1.05 ± 0.06 scaled intensity
Substance = VMRLQSETSV; tested on = construct, MBP fusion, human SCRIB, PDZ 3-4; test = automated holdup; system = peptide, purified PDZ protein; setting = concentration not given, unit not given; how to read = baseline: biotin control resin, higher = stronger binding; quantity = binding intensity; value = 0.346
Substance = Peginesatide; tested on = UT7/EPO; test = tyrosine phosphorylation, LC-MS/MS phosphoproteomics, GluC, refers to: PLCG1 tyrosine 833; setting = 10 nM, 15 min, together with: 10 U/mL EPO; how to read = baseline: vehicle; quantity = phosphorylation level; value = 6.8 fold
Substance = B1 (human ADP/ATP translocase 4); tested on = PP6C (human); test = co-immunoprecipitation, IP-MS; system = CYB5R4 knockout cells; setting = concentration not given; how to read = baseline: CYB5R4 knockout over parental; quantity = log2 fold change; value = -0.39
Substance = milbemycin oxime; tested on = Saccharomyces cerevisiae; test = cell growth; system = Pdr5 deleted, Cdr1 overexpressed; setting = 2^-7.966 µg/mL; quantity = OD600; value = 1.02 and 0.969 and 0.959
Substance = MTVCNASQRQAHAQATAVSL; tested on = H441; test = phage binding; system = peptide; how to read = baseline: targeting over control phage; quantity = selectivity ratio; value = 0.8 ± 0.38
Substance = B2 (PLRG1); tested on = CYB5R4 knockout human cells; test = PP4 interaction, 3xFLAG-PP4C IP-MS; setting = concentration not given; how to read = baseline: CYB5R4 KO over parental; quantity = log2 fold change; value = 0.24
Substance = heparin sodium; system = human; setting = intravenous infusion, 8 IU/kg/h, day 1 to 6; quantity = ACT AUEC; value = 16400 h·s
Substance = CAUUUUGGG (ssRNA); tested on = U2AF2; test = sequencing of bound RNA; system = RNA; setting = motif only; quantity = Kd; value = 1900 nM
Substance = GGWVEKETYY; tested on = construct, MBP fusion, human SCRIB, PDZ 3-4; test = automated holdup; system = peptide, crude extract; setting = concentration not given, uncorrected, unit not given; how to read = baseline: biotin control resin, higher = stronger binding; quantity = binding intensity; value = 0.0759
Substance = epoetin alfa; tested on = UT7/EPO; test = RT-qPCR, refers to: CD80; setting = concentration not given, 90 min; how to read = baseline: vehicle; quantity = mRNA fold induction; value = 2.7 fold
Substance = B3 (spindlin-3); tested on = CYB5R4 knockout human cells; test = PP4 interaction, 3xFLAG-PP4C IP-MS; setting = concentration not given; how to read = baseline: CYB5R4 KO over parental; quantity = log2 fold change; value = -0.07
Substance = GSGAGKETYY; tested on = construct, MBP fusion, human SCRIB, PDZ 3-4; test = surface plasmon resonance; system = peptide; setting = concentration not given; how to read = higher = stronger binding; quantity = normalised SPR binding response; value = 2.5 normalised RU
Substance = B4 (human FOXK1); tested on = CYB5R4 knockout human cells; test = PP4 interaction, 3xFLAG-PP4C IP-MS; setting = concentration not given; how to read = baseline: CYB5R4 KO over parental; quantity = log2 fold change; value = -1.5
Substance = KEAFWDRCLYVINLMSSKMLQINA; tested on = Cyclin-dependent kinase 5, with p25 (CDK5, Homo sapiens, UniProt Q00535); test = phosphotransferase activity, radiometric; system = peptide; setting = concentration not given, 10% DMSO, together with: histone substrate; how to read = baseline: p5-WT peptide; quantity = activity change; value = 17%
Substance = B5 (human SFPQ); tested on = CYB5R4 knockout human cells; test = PP4 interaction, 3xFLAG-PP4C IP-MS; setting = concentration not given; how to read = baseline: CYB5R4 KO over parental; quantity = log2 fold change; value = 0.68
Substance = CTCAGGAATTCCTATGAAGTAATGTGGAGCTCAGTTCAAGTCAATCGGTCC (dsDNA; 5'-amino-C6 primer); tested on = SPT15 full length assumed (Saccharomyces cerevisiae, UniProt P13393); test = array; system = double-stranded DNA, one strand shown; setting = TBP alone; quantity = Kd; value = 2.62 ± 0.28 nM
